Measurements from different studies.
Lines come from different studies, so protocols differ. Several values in a cell are separate wells, animals, samples, runs or records. ± gives the spread as reported.
Bcl-2-related protein A1 C113S/P104K: Bcl-2-related protein A1 (Mus musculus, UniProt Q07440, C113S/P104K)
guaB: Inosine-5'-monophosphate dehydrogenase (guaB, Staphylococcus aureus, UniProt Q2YVL6)
cyp121: Mycocyclosin synthase (cyp121, Mycobacterium tuberculosis, UniProt P9WPP7)
Enpp1: Ectonucleotide pyrophosphatase/phosphodiesterase family member 1 (Enpp1, Mus musculus, UniProt P06802)
blaOXA-33: Beta-lactamase (blaOXA-33, Acinetobacter baumannii, UniProt Q8RLA6)
OXA-48: Beta-lactamase OXA-48 (OXA-48, Klebsiella pneumoniae, UniProt Q6XEC0)

Sequences of proteins named here, by UniProt entry; tags and fusion partners are left off. Residues count along the entry.
UniProt Q07440, 1-152 P104K/C113S limits assumed: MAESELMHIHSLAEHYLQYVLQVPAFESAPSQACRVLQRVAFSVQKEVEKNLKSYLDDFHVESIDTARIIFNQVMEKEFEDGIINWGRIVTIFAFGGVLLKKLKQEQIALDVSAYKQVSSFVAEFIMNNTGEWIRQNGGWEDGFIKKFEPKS
UniProt Q07440, whole entry P104K/C113S, looked up: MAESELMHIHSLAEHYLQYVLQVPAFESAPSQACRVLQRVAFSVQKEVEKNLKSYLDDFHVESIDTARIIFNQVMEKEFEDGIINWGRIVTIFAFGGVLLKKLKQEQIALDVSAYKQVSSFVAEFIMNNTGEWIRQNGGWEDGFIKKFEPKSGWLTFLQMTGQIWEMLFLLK
UniProt Q2YVL6, whole entry: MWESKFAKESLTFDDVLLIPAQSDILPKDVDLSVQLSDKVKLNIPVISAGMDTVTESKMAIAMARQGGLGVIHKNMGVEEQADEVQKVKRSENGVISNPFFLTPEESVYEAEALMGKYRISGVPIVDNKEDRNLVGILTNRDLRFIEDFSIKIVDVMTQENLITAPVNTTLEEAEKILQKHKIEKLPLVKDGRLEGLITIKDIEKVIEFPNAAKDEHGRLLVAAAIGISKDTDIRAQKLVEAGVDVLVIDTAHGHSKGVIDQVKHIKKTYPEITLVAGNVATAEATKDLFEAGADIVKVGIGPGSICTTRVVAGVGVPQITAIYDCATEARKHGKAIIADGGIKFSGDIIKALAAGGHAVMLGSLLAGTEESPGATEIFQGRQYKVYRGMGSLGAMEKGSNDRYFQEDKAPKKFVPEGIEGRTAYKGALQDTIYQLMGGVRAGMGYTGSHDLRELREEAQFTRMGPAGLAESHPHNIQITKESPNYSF
UniProt P9WPP7, whole entry: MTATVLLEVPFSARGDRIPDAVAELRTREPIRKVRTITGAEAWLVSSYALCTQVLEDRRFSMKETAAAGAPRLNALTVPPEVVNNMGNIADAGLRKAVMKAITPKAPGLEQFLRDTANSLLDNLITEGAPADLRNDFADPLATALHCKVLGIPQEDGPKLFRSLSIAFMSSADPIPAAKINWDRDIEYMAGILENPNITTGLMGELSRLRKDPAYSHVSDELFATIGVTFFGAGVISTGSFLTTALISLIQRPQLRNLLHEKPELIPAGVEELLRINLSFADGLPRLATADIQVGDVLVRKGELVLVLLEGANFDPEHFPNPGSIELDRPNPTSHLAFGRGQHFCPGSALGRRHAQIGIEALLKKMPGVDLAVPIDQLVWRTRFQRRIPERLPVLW
UniProt P06802, 92-905 isoform 2 limits assumed: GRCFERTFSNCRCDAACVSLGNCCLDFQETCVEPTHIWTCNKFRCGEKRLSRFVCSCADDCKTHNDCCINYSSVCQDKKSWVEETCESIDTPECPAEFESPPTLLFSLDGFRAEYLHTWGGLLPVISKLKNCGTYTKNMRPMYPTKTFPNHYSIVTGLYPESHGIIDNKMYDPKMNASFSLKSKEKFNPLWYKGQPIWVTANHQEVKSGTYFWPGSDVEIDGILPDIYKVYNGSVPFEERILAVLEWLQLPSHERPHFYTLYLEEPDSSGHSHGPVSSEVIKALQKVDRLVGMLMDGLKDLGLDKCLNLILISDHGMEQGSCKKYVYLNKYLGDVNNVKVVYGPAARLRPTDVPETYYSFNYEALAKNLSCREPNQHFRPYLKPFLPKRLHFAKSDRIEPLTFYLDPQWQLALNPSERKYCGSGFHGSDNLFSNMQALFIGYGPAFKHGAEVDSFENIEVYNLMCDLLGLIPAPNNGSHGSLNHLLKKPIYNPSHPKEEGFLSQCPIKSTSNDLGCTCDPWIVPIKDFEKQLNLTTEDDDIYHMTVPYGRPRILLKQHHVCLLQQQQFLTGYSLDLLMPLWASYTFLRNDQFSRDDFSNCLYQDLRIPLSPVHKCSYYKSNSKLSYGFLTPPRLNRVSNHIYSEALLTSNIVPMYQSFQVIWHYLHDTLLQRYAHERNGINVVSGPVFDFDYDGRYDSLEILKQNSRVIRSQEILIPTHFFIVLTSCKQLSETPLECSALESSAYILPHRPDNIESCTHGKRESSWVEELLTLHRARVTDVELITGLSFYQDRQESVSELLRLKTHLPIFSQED
UniProt Q8RLA6, 21-275 limits assumed: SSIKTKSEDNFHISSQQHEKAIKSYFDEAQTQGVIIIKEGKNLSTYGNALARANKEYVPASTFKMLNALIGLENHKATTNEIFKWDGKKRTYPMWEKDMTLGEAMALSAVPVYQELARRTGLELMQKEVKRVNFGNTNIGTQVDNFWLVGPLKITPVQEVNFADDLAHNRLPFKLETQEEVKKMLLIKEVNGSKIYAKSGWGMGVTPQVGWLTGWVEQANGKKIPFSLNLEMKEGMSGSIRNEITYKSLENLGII
UniProt Q6XEC0, 23-265 limits assumed: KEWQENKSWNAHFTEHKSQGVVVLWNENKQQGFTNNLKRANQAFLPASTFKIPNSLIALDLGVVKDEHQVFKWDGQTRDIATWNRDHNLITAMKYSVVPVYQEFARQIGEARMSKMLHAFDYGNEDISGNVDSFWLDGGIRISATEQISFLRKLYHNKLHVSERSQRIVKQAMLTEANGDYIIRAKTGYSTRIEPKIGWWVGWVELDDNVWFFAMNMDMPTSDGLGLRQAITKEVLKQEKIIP
UniProt P14416, whole entry: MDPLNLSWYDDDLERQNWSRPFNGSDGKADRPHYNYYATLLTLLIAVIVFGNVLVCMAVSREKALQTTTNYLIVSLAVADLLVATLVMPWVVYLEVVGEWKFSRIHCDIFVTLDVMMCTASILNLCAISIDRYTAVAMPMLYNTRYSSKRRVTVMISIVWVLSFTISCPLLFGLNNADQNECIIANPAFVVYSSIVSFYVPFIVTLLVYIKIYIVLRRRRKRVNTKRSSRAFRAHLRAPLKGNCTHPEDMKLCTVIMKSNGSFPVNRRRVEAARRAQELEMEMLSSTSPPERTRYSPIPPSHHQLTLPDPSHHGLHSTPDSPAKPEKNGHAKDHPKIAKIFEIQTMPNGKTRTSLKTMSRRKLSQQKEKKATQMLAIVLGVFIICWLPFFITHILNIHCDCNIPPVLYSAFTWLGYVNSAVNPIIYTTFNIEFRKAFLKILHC
UniProt P42260, 32-908 limits assumed: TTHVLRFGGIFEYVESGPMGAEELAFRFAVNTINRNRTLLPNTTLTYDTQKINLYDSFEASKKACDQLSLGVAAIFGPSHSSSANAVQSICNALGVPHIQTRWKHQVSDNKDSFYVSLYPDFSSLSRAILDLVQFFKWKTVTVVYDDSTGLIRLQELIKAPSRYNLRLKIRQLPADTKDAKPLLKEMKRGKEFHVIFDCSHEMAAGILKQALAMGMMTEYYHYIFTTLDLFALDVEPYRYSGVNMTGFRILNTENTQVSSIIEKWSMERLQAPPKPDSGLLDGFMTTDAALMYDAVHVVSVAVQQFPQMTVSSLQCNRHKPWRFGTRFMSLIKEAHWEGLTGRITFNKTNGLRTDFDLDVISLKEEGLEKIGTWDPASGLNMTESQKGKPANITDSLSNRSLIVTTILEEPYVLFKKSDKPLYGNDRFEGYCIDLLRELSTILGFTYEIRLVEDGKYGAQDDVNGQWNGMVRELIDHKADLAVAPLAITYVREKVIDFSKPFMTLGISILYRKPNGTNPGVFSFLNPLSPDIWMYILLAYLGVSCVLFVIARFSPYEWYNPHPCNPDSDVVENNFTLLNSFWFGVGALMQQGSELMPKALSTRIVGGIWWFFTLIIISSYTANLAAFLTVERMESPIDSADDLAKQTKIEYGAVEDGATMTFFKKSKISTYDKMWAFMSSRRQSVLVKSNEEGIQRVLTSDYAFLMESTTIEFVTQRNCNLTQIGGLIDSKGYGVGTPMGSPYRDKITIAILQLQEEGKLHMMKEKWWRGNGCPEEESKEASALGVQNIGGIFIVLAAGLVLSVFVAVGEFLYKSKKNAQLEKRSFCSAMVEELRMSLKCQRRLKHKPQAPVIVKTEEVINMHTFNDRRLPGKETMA
UniProt P0A017, whole entry: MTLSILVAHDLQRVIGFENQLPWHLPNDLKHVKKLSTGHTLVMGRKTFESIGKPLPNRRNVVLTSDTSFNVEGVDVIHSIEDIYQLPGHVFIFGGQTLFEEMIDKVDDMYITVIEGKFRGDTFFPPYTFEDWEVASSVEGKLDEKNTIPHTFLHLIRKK
UniProt Q2TR58, 19-280 limits assumed: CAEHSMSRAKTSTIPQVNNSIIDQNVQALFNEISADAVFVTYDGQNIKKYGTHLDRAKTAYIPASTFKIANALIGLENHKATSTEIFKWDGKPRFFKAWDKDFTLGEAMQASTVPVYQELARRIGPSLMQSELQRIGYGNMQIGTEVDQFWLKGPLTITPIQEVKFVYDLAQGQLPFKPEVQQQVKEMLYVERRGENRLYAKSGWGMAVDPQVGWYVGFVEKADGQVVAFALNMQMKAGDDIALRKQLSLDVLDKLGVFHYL
UniProt C7C2U7, 1-163: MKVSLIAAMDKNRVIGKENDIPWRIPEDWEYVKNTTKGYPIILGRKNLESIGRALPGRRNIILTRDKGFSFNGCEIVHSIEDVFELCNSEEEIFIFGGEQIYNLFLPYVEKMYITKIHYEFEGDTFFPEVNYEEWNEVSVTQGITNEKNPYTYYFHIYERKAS
UniProt Q07817, whole entry: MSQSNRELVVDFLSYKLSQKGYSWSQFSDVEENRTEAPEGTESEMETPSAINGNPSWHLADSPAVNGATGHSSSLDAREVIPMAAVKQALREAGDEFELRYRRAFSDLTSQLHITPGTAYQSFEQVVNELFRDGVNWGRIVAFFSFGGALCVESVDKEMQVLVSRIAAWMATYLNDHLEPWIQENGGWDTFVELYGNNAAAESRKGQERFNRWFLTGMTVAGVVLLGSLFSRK
UniProt P40763, whole entry: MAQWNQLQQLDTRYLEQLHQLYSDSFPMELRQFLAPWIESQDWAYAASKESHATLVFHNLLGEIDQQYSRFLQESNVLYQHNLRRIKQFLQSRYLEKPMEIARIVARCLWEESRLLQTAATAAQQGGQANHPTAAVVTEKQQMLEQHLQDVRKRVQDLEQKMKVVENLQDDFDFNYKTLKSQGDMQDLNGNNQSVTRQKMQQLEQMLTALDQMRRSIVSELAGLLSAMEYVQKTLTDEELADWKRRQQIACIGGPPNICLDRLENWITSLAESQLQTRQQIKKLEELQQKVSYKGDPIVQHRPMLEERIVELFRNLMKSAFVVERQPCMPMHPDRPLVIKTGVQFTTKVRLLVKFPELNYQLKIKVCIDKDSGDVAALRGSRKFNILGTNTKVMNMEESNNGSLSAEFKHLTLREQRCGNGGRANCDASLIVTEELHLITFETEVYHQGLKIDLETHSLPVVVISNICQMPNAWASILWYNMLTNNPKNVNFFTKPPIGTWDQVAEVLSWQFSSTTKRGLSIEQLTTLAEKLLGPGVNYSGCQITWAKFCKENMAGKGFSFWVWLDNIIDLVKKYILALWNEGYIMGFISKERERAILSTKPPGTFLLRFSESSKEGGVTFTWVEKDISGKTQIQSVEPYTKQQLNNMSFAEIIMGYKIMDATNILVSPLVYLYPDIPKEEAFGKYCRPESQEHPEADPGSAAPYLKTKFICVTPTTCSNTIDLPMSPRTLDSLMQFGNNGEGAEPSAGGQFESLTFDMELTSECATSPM
UniProt P13955, whole entry: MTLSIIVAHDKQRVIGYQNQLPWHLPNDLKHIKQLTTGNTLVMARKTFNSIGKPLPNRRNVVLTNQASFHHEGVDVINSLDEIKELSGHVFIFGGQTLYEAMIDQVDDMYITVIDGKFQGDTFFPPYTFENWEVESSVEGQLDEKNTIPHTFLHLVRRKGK
UniProt Q6ZMT4, 92-488 limits assumed: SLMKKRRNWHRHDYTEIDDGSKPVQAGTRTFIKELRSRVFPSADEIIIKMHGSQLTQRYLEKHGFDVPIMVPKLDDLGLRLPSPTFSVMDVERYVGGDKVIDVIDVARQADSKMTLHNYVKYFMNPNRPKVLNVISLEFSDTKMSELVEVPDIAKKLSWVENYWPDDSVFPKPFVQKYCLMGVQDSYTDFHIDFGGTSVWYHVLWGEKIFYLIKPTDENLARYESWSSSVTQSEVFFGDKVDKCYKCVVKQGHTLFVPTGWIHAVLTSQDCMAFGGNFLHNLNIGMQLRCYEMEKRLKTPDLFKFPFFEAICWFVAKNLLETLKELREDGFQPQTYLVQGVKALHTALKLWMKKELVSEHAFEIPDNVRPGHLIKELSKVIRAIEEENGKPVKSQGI
UniProt Q48485, 24-384 limits assumed: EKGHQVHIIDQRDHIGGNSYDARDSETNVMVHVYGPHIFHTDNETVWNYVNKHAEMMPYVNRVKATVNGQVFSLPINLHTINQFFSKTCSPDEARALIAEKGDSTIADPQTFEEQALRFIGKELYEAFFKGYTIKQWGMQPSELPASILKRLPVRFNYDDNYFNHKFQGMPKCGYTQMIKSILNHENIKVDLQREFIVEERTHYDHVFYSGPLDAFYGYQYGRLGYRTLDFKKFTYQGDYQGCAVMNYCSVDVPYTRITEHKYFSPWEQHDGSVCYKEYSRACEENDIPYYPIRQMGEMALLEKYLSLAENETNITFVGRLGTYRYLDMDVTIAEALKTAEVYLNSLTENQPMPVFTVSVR

O[C@H](c1ccc(F)cc1)C(F)(F)CCN1CCC(O)(c2ccc(Cl)cc2)CC1 (racemic) — Ki (D(2) dopamine receptor, long isoform (DRD2, Homo sapiens, UniProt P14416)): 1800 ± 196 nM
Cc1o[nH]c(=O)c1S(=O)(=O)Nc1cccc(-c2nnsc2Cl)c1 — Ki (Beta-lactamase (ampC, Escherichia coli K-12, UniProt P00811); inhibitor, spectrophotometric): 36000 nM
O=[N+]([O-])c1ccc(N=Nc2c(O)ccc3cc(S(=O)(=O)O)ccc23)cc1 — Ki (Bcl-2-related protein A1 C113S/P104K; binding, inhibitor, fluorescence polarization; together with: FITC-labelled Noxa peptide): 3000 nM
O=C(O)C(Cc1nn[nH]n1)[C@@H]1CCN[C@H]1C(=O)O (relative stereo) — Ki (Grik2 (Rattus norvegicus, UniProt P42260); binding; Sf9 cells; cloned homomeric receptor, together with: [3H]kainate): 61000 nM
CO[P@@]1(=O)OC[C@H]2COC(=O)C2=C(C)O1 (relative stereo) — Ki (ACHE (Homo sapiens, UniProt P22303); enzyme activity, inhibitor, noncovalent binding constant): 210 ± 140 nM
C=C(C)c1cccc(C(C)(C)NC(=O)Nc2ccc(Cl)c(O)c2)c1 — Ki (guaB; inhibitor; together with: 1000 µM IMP and 1000 µM NAD+): 9 ± 4 nM
O=C(NC1CCN(c2ncnc3c2nc(-c2ccccc2Cl)n3-c2ccc(Cl)cc2)CC1)C1CCCCC1 — Ki (CNR2 (Homo sapiens, UniProt P34972); binding, radioligand displacement; CHO cell membranes; together with: [3H]CP55940): 840 nM
O=C(Cc1cccs1)NCB(O)O — Ki (ADC-7 beta-lactamase (Acinetobacter baumannii, UniProt Q6DRA1); inhibitor; pH 7.4, room temperature, together with: nitrocefin substrate): 780 ± 20 nM
CCCC1c2ccccc2C=NN1C(=O)/C=C/c1cc(Cc2cnc(N)nc2N)cc(OC)c1OC (racemic) — Ki (folA (Staphylococcus aureus, UniProt P0A017); inhibitor; pH 7): 1.2 nM
O=S(=O)(O)c1ccc(-c2ccc(S(=O)(=O)O)cc2)cc1 — Ki (Beta-lactamase OXA-58 (OXA-58, Acinetobacter baumannii, UniProt Q2TR58); enzyme activity, inhibitor; enzyme 0.1 nM, together with: nitrocefin 30 µM): 1800 ± 100 nM
CC(C)(NC(=O)Nc1ccc(Cl)c(-c2nc(C(F)(F)F)cs2)c1)c1cccc(C(N)=NO)c1 — Ki (IMPDH 2, Staphylococcus aureus, G445S; inhibitor; together with: 500 µM NAD+, 1.0 mM IMP): 930 ± 30 nM
O=C(Cc1cccs1)NCB(O)O — Ki (bla (Klebsiella pneumoniae, UniProt P0AD64); enzyme activity, inhibitor; together with: nitrocefin competitor): 42000 ± 4000 nM
O=c1c2ccc(Oc3ccc(OC(F)(F)F)cc3)cc2[nH]c2cc(F)cc(Cl)c12 — Ki (Dihydroorotate dehydrogenase (Toxoplasma gondii, UniProt Q8MXD1); enzyme activity, competitive inhibitor, DCIP reduction): 59 nM
CCc1nc(N)nc(N)c1C#CC(C)c1cc2c(c(-c3ccc(CC(=O)O)cc3)c1)OCO2 (stereo not shown) — Ki (Dihydrofolate reductase (Staphylococcus aureus, UniProt C7C2U7); inhibitor): 1.8 ± 0.2 nM
CCCCCCCCCCCCNC(=O)N[C@H](C(=O)N[C@H]1/C=C/CCNC(=O)/C=C/[C@H](C)NC1=O)C(C)C — Ki (PSMB7 (Homo sapiens, UniProt Q99436); trypsin-like activity, inhibitor, Proteasome-Glo; ARD; 24 h): 162 ± 50.4 nM
CCC(c1ccc(-c2ccc(F)cc2)cc1)n1ccnc1 (stereo not shown) — Kd (cyp121; binding): 10100 ± 1500 nM
Nc1nc2c(ncn2[C@@H]2CC[C@H](OC(C(=O)O)P(=O)(O)O)C2)c(=O)[nH]1 (relative stereo) — Ki (Gag-Pol polyprotein, reverse transcriptase (gag-pol, Human immunodeficiency virus type 1 group M subtype B, UniProt P04585); noncompetitive inhibitor; together with: varying dGTP, poly rC.dG): 850 nM
Cc1cc(OCCCc2c(C(=O)Nc3cccc(C(=O)O)c3)[nH]c3c(-c4c(C)nn(C)c4C)c(Cl)ccc23)cc(C)c1Cl — Ki (BCL2L1 (Homo sapiens, UniProt Q07817); fluorescence polarization competition; together with: 10 nM FITC-Bak peptide): 4600 nM
COc1cccc2c(N3CCC(CCP(=O)(O)O)CC3)c(C#N)cnc12 — Ki (Enpp1; enzyme activity, inhibitor, coupled luciferase AMP detection; pH 7.4, together with: cGAMP 5 µM): < 2 nM
CC(=NO)c1cccc(C(C)(C)NC(=O)Nc2ccc(Cl)c(-c3nc(C(F)(F)F)cs3)c2)c1 — Ki (guaB; inhibitor; together with: 1000 µM IMP and 1000 µM NAD+): 13 ± 2 nM
CC(C)C(C(=O)N(Cc1ccc(C2CCCCC2)cc1)c1ccc(C(=O)O)cc1)N(C)S(=O)(=O)c1c(F)c(F)c(F)c(F)c1F (stereo not shown) — Ki (STAT3 (Homo sapiens, UniProt P40763); fluorescence polarization; together with: 5-FAM-GpYLPQTV-NH2 10 nM): 72000 ± 6000 nM
O=C(O)c1ccc(-c2cccc(C(=O)O)c2)cc1 — Ki (blaOXA-33; enzyme activity, inhibitor; enzyme 0.2 nM, together with: nitrocefin 30 µM): 118400 ± 900 nM
Cc1ccc(C(C)C)cc1Oc1nccc(-c2c(-c3ccc(C(F)(F)F)cc3)ncn2[C@H]2CC[C@@H](N)C2)n1 — Ki (Bromodomain-containing protein 4, BD1 (BRD4, Homo sapiens, UniProt O60885); binding): 4.1 ± 1.1 nM
CSC[C@H](NC(=O)Cc1ccc(N)cc1)C(=O)N[C@@H](Cc1ccccc1)[C@H](O)C(=O)N1CSC(C)(C)[C@H]1C(=O)N[C@H]1c2ccccc2C[C@H]1O — Ki (Plasmepsin I (PMI, Plasmodium falciparum, UniProt P39898); inhibitor, fluorogenic substrate; pH 5.0, mature enzyme): 0.47 nM
CCc1nc(N)nc(N)c1C#CC(C)c1cc2c(c(-c3ccc(C(=O)O)cc3)c1)OCO2 (stereo not shown) — Ki (Dihydrofolate reductase type 1 from Tn4003 (Staphylococcus aureus, UniProt P13955); inhibitor): 17 ± 1 nM
COc1ccc(NC(=O)CSc2nc3c(N)ncnc3[nH]2)cc1OC — Ki (Enpp1; enzyme activity, inhibitor, coupled luciferase AMP detection; pH 7.4, together with: cGAMP 5 µM): > 10000 nM
O=[N+]([O-])c1cc(N=Nc2c(O)ccc3cc(S(=O)(=O)O)ccc23)c(O)c([N+](=O)[O-])c1 — Ki (Bcl-2-related protein A1 C113S/P104K; binding, inhibitor, fluorescence polarization competition; together with: FITC-Noxa peptide, Kd 20 nM): 3490 nM
C[C@@H]1CN(C)CCN1c1nc(-c2ccc(F)cc2)cs1 — Ki (Slc6a4 (Rattus norvegicus, UniProt P31652); [3H]5-HT uptake, inhibitor; no preincubation): 110 ± 20 nM
O=S(=O)(O)c1ccc2cc(S(=O)(=O)O)ccc2c1 — Ki (OXA-48; enzyme activity, inhibitor; 0.2 nM enzyme, together with: nitrocefin 30 µM): < 10000 nM and 5100 nM
CC(C)(C)c1ccc(CNc2nc3[nH]c(CN4CCOCC4)cc(=O)n3n2)cc1 — Ki (CAB1 (Saccharomyces cerevisiae, UniProt Q04430); enzyme activity, inhibitor, ADP-Glo, Lineweaver-Burk; together with: ATP 1000 µM): 114 nM
O=C(NC1CCN(c2ncnc3c2nc(-c2ccccc2Cl)n3-c2ccc(Cl)cc2)CC1)C1CCCC1 — Ki (CNR1 (Homo sapiens, UniProt P21554); binding, radioligand displacement; CHO cell membranes; together with: [3H]CP55940): 1.5 nM
CC(C)(NC(=O)Nc1ccc(Cl)cc1)c1cccc(C(=N)NO)c1 — Ki (IMPDH 2, Staphylococcus aureus, Y446C; inhibitor; together with: 8 mM NAD+, 1.0 mM IMP): 3800 ± 400 nM
COc1cc2c(N(C)C)nc(NCCCN(C)C)nc2cc1OCCCCCN — Ki (Lysine-specific demethylase 7A, Jumonji domain (KDM7A, Homo sapiens, UniProt Q6ZMT4); demethylase activity, inhibitor, mass spectrometry; together with: H3K9me2 peptide): 2100 nM
Nc1cc(S(=O)(=O)O)cc2cc(S(=O)(=O)O)cc(O)c12 — Ki (blaOXA-33; enzyme activity, inhibitor; enzyme 0.2 nM, together with: nitrocefin 30 µM): 140000 ± 7000 nM
c1cn(Cc2ccc(-c3ccc4sccc4c3)cc2)cn1 — Kd (cyp121; binding): 1500 ± 460 nM
O=C(O)CC1Sc2nnc(-c3cccs3)n2N=C1c1ccc(Cl)cc1 (stereo not shown) — Ki (UDP-galactopyranose mutase (Klebsiella pneumoniae, UniProt Q48485); enzyme activity, competitive inhibitor, Lineweaver-Burk): 12000 ± 5000 nM
O=S(=O)(O)c1ccc2c(c1)Cc1cc(S(=O)(=O)O)ccc1-2 — Ki (OXA-48; enzyme activity, inhibitor): 0.5 µg/mL

For quick reference, copied from above:
CC(C)(NC(=O)Nc1ccc(Cl)c(-c2nc(C(F)(F)F)cs2)c1)c1cccc(C(N)=NO)c1 — Ki (IMPDH 2, Staphylococcus aureus, G445S; inhibitor; together with: 500 µM NAD+, 1.0 mM IMP): 930 ± 30 nM
O=C(Cc1cccs1)NCB(O)O — Ki (bla (Klebsiella pneumoniae, UniProt P0AD64); enzyme activity, inhibitor; together with: nitrocefin competitor): 42000 ± 4000 nM
O=c1c2ccc(Oc3ccc(OC(F)(F)F)cc3)cc2[nH]c2cc(F)cc(Cl)c12 — Ki (Dihydroorotate dehydrogenase (Toxoplasma gondii, UniProt Q8MXD1); enzyme activity, competitive inhibitor, DCIP reduction): 59 nM
CCc1nc(N)nc(N)c1C#CC(C)c1cc2c(c(-c3ccc(CC(=O)O)cc3)c1)OCO2 (stereo not shown) — Ki (Dihydrofolate reductase (Staphylococcus aureus, UniProt C7C2U7); inhibitor): 1.8 ± 0.2 nM
